# Assay results collected from several papers.
# Protocols differ between the studies behind these lines. ± gives the spread as reported.
# Cell line: HEK293
Structure (SMILES),test,test system,conditions,measurement,value
COC(=O)[C@H](Cc1ccccc1)NC(=O)[C@H](Cc1ccccc1)N=Cc1ccc(C=N[C@@H](Cc2ccccc2)C(=O)N[C@@H](Cc2ccccc2)C(=O)OC)cc1,MTT,,"24 h, 37 °C, self-assembled structures",highest non-toxic concentration,≤ 75 µM
Cc1[nH][n+]([Pd-2]([Br])([Br])[n+]2[nH]c(C)c(CSCc3ccccc3)c2C)c(C)c1CSCc1ccccc1,"cytotoxicity, 7-AAD flow cytometry",,24 h,IC50,980 ± 20 nM
CC(C)Cc1ccc(C(C)C(=O)NN=Cc2ccc(OCC(=O)NN=Cc3cccc([N+](=O)[O-])c3)cc2)cc1 (stereo not drawn),MTT,,"80 µM, 48 h",viability,96%
Cc1[nH][n+]([Pt-2]([Cl])([n+]2[nH]c(C)c(CSCc3ccccc3)c2C)[n+]2[nH]c(C)c(CSCc3ccccc3)c2C)c(C)c1CSCc1ccccc1.Cl,"cytotoxicity, 7-AAD flow cytometry",,24 h,IC50,460 ± 10 nM
NCC1OC(OC2C(N)CC(N)C(OC3OC(CO)C(O)C(N)C3O)C2OCCCCn2cc(CNc3nc(NCc4cn(CCCCOC5C(OC6OC(CN)C(O)CC6N)C(N)CC(N)C5OC5OC(CO)C(O)C(N)C5O)nn4)nc(NCc4cn(CCCCOC5C(OC6OC(CN)C(O)CC6N)C(N)CC(N)C5OC5OC(CO)C(O)C(N)C5O)nn4)n3)nn2)C(N)CC1O (stereo not drawn),"cell growth or viability, resazurin",,"27 µM, 48 h",viability,88%
CC(C)[C@H](C)Nc1c(-c2c(F)cc(OCCCN(C)C)cc2F)c(Cl)nc2ncnn12,"cell growth or viability, ATP luminescence",,48 h,CC50,70 nM
CC(C)Cc1ccc(C(C)C(=O)N/N=C/c2ccc(OCC(=O)N/N=C/c3cccc(O)c3)cc2)cc1 (stereo not drawn),MTT,,"100 µM, 48 h",viability,49.5%
NC[C@H]1O[C@H](O[C@H]2[C@H](OCCCCCCCCCCCCn3cc(CNc4nc(NCc5cn(CCCCCCCCCCCCO[C@@H]6[C@@H](O)[C@H](N)C[C@H](N)[C@H]6O[C@H]6O[C@H](CN)[C@@H](O)C[C@H]6N)nn5)nc(NCc5cn(CCCCCCCCCCCCO[C@@H]6[C@@H](O)[C@H](N)C[C@H](N)[C@H]6O[C@H]6O[C@H](CN)[C@@H](O)C[C@H]6N)nn5)n4)nn3)[C@@H](O)[C@H](N)C[C@@H]2N)[C@H](N)C[C@@H]1O,"cell growth or viability, resazurin",,48 h,CC50,17800 nM
CC(=O)NCCCOc1cc(F)c(-c2c(Cl)nc3ncnn3c2N[C@@H](C)C(F)(F)F)c(F)c1,"cell growth or viability, ATP luminescence",,48 h,CC50,32.3 nM
O=C(Cc1ccc(OCc2ccccc2)cc1)NC1(C(=O)O)CCN(C(=O)c2ccc(-c3cccc(Cl)c3)cc2)CC1,cytotoxicity,,3 days,IC50,> 100000 nM
C/C(=N\NC(=N)N)c1nnn(-c2ccc(S(=O)(=O)NCC(C)C)cc2)c1C,"cytotoxicity, MTT",,,IC50,18900 nM
CCCCCCCOc1ccc(CC[C@](N)(CO)COP(=O)(O)O)cc1C(F)(F)F,,supernatant,100 nM,time to phosphate metabolite detection,6 h
C[C@H](Nc1c(-c2c(F)cc(OCCCN(C)C)cc2F)c(Cl)nc2ncnn12)C1CC1,"cell growth or viability, ATP luminescence",,48 h,CC50,15.4 nM
COc1ccc(C(=O)/C=C(\O)C(F)(F)C(F)(F)F)cn1,cell viability,,"24 h, 10% FBS",EC50,~10000 nM
O=C([O-])CN1CCN(CC(=O)[O-])CCN(C(CCC(=O)NC(Cc2c[nH]c3ccc(O)cc23)C(=O)NCCc2c[nH]c3ccc(O)cc23)C(=O)O)CCN(CC(=O)[O-])CC1.[Gd+3] (stereo not drawn),MTT,,"up to 5 mM, 16 h, 37 °C",cytotoxicity,not toxic
COc1cccc(/C=N/NC(=O)COc2ccc(/C=N/NC(=O)C(C)c3ccc(CC(C)C)cc3)cc2)c1O (stereo not drawn),MTT,,"100 µM, 48 h",viability,43.6%
C[C@@H](Nc1c(-c2c(F)cc(C#N)cc2F)c(Cl)nc2ncnn12)C(C)(C)C,"cell growth or viability, ATP luminescence",,48 h,CC50,29.1 nM
CC(C)Cc1ccc(C(C)C(=O)N/N=C/c2ccc(OCC(=O)N/N=C/c3ccc([N+](=O)[O-])cc3)cc2)cc1 (stereo not drawn),MTT,,"150 µM, 48 h",viability,38.3%
C[C@H](Nc1c(-c2c(F)cc(OCCCN(C)C)cc2F)c(Cl)nc2ncnn12)C(C)(C)C,"cell growth or viability, ATP luminescence",,48 h,CC50,36.9 nM
NCC1OC(OC2C(N)CC(N)C(OC3OC(CO)C(O)C(N)C3O)C2OCCCCCCCCCCCCn2cc(CNc3nc(NCc4cn(CCCCCCCCCCCCOC5C(OC6OC(CN)C(O)CC6N)C(N)CC(N)C5OC5OC(CO)C(O)C(N)C5O)nn4)nc(NCc4cn(CCCCCCCCCCCCOC5C(OC6OC(CN)C(O)CC6N)C(N)CC(N)C5OC5OC(CO)C(O)C(N)C5O)nn4)n3)nn2)C(N)CC1O (stereo not drawn),"cell growth or viability, resazurin",,"27 µM, 48 h",viability,16%
C[C@@H](Nc1c(-c2c(F)cc(OCCCO)cc2F)c(Cl)nc2ncnn12)C(C)(C)C,"cell growth or viability, ATP luminescence",,48 h,CC50,18.1 nM
O=C(NCCCCCCCCCC[P+](c1ccccc1)(c1ccccc1)c1ccccc1)c1ccc(O)c(O)c1,"cell growth or viability, resazurin",,20 h,CC50,9.07 µg/mL
CC(C)Cc1ccc(C(C)C(=O)N/N=C/c2ccc(OCC(=O)N/N=C/c3c(O)ccc4ccccc34)cc2)cc1 (stereo not drawn),MTT,,"40 µM, 48 h",viability,35.6%
CC(C)[C@@H](C)Nc1c(-c2c(F)cc(C#CCCN)cc2F)c(Cl)nc2ncnn12,"cell growth or viability, ATP luminescence",,48 h,CC50,214 nM

# Some of these lines once more:
Structure (SMILES),test,test system,conditions,measurement,value
COC(=O)[C@H](Cc1ccccc1)NC(=O)[C@H](Cc1ccccc1)N=Cc1ccc(C=N[C@@H](Cc2ccccc2)C(=O)N[C@@H](Cc2ccccc2)C(=O)OC)cc1,MTT,,"24 h, 37 °C, self-assembled structures",highest non-toxic concentration,≤ 75 µM
Cc1[nH][n+]([Pd-2]([Br])([Br])[n+]2[nH]c(C)c(CSCc3ccccc3)c2C)c(C)c1CSCc1ccccc1,"cytotoxicity, 7-AAD flow cytometry",,24 h,IC50,980 ± 20 nM
CC(C)Cc1ccc(C(C)C(=O)NN=Cc2ccc(OCC(=O)NN=Cc3cccc([N+](=O)[O-])c3)cc2)cc1 (stereo not drawn),MTT,,"80 µM, 48 h",viability,96%
Cc1[nH][n+]([Pt-2]([Cl])([n+]2[nH]c(C)c(CSCc3ccccc3)c2C)[n+]2[nH]c(C)c(CSCc3ccccc3)c2C)c(C)c1CSCc1ccccc1.Cl,"cytotoxicity, 7-AAD flow cytometry",,24 h,IC50,460 ± 10 nM
